Results collected from several papers.
Lines come from different studies, so protocols differ. ± marks the error that the study gave.

CCCCCCCCCCCCCC[N+](C)(C)C  k-1 (Sodium channel protein type 4 alpha, BTX-activated (Oryctolagus cuniculus, UniProt G1SLL9); concentration not given, 0 mV): 12.6 s⁻¹
O=c1ccn([C@@H]2O[C@](F)(CO)[C@@H](O)[C@H]2O)c(=O)[nH]1  EC50 (Mammarenavirus lassaense; viral replication; HeLa, clade IV Josiah): 1 µM
CC(C)C(=O)OC[C@@]1(F)O[C@@H](n2cnc(-c3c[nH]c(=O)[nH]c3=O)c2)[C@H](OC(=O)C(C)C)[C@@H]1OC(=O)C(C)C  IC50 (Zaire ebolavirus; viral replication, reporter virus; Huh-7; 72 h): 57.2 µM
CC(C)CC1(C)NC(=O)N(Cc2cc([N+](=O)[O-])cc3c2OCOC3)C1=O (centres unmarked)  inhibition (MERS-CoV spike VSV pseudovirus; pseudovirus entry; 10 µM): 40%
NC(=O)c1ncn([C@@H]2O[C@H](CO)[C@@H](O)[C@H]2O)n1  EC50 (Lassa virus; HeLa, clade IV Josiah): 2.63 ± 0.71 µM
CCOP(=O)(OCC)Oc1ccc([N+](=O)[O-])cc1  IC10 (SH-SY5Y; cell viability; freely dissolved concentration): 155 µM
CCOc1nc(N)ncc1-c1cn([C@@H]2O[C@](F)(CO[P@@](=O)(N[C@@H](C)C(=O)OC(C)C)Oc3ccccc3)[C@@H](O)[C@H]2O)cn1  IC50 (Zaire ebolavirus; viral replication, reporter virus; Huh-7; 72 h): > 100 µM
NC(=O)c1nc(F)c[nH]c1=O  EC50 (Lassa virus; HeLa, clade III Nigeria-231): 77.3 ± 13.3 µM

For quick reference, copied from above:
CCCCCCCCCCCCCC[N+](C)(C)C  k-1 (Sodium channel protein type 4 alpha, BTX-activated (Oryctolagus cuniculus, UniProt G1SLL9); concentration not given, 0 mV): 12.6 s⁻¹
